Results pooled from the literature.
Lines come from different studies, so protocols differ. Several values in a cell are separate wells, animals, samples, runs or records. Numbers after ± are the reported error. In brackets after ≈: the same amount, converted by molar mass.

`CC[C@]1(CO)O[C@@H](n2cnc3c(=O)[nH]c(N)nc32)C[C@@H]1O` has an IC50 of 19.9 ± 3.1 nM (HIV-1 T215F; MTT; MT4).
`COc1ccccc1C(=O)Nc1ccccc1Sc1ccc(N)cc1` gave an IC50 of 37800 nM (HIV-1; viral replication, measured: RT activity; H9 expressing A3G, LAI, X4-tropic wild type; day 7).
`CNc1nc(N)ncc1-c1cn([C@@H]2O[C@H](CO)[C@@H](O)[C@@]2(C)F)cn1` — result for antiviral activity: “inactive” (Epstein-Barr virus; concentration not given).
With `Cc1cc(/C=C/C#N)cc(C)c1Nc1nc(Nc2ccc(/C=C/C#N)cc2)ncc1N` the EC50 was 1.9 ± 0.4 nM (HIV-1; viral replication, single-round infection; RT mutant K101E/M184V).
For `CC[C@H](C)[C@H](NC(=O)[C@H](CC(C)C)NC(=O)[C@H](Cc1c[nH]c2ccccc12)NC(=O)[C@H](CCC(N)=O)NC(=O)[C@@H](NC(=O)[C@H](Cc1ccccc1)NC(=O)[C@H](C)NC(=O)[C@H](CCCCNC(=O)COCCOCCNC(=O)COCCOCCNC(=O)CC[C@H](NC(=O)CCCCCCCCCCCCCCCCCCC(=O)O)C(=O)O)NC(=O)[C@H](CCC(N)=O)NC(=O)[C@H](C)NC(=O)[C@@H](NC(=O)[C@H](CCCCN)NC(=O)[C@H](CC(=O)O)NC(=O)[C@H](CC(C)C)NC(=O)C(C)(C)NC(=O)[C@@H](NC(=O)[C@H](CO)NC(=O)[C@H](Cc1ccc(O)cc1)NC(=O)[C@H](CC(=O)O)NC(=O)[C@H](CO)NC(=O)[C@@H](NC(=O)[C@H](Cc1ccccc1)NC(=O)[C@@H](NC(=O)CNC(=O)[C@H](CCC(=O)O)NC(=O)C(C)(C)NC(=O)[C@@H](N)Cc1ccc(O)cc1)[C@@H](C)O)[C@@H](C)O)[C@@H](C)CC)[C@@H](C)CC)C(C)C)C(=O)N[C@@H](C)C(=O)NCC(=O)NCC(=O)N1CCC[C@H]1C(=O)N[C@@H](CO)C(=O)N[C@@H](CO)C(=O)NCC(=O)N[C@@H](C)C(=O)N1CCC[C@H]1C(=O)N1CCC[C@H]1C(=O)N1CCC[C@H]1C(=O)N[C@@H](CO)C(N)=O`, “subjects with application site reaction” read 0% (healthy subjects; all MAD doses).
`COc1ccc(Nc2nc(Nc3ccc(OC)cc3OC)nc(N3CCOCC3)n2)c(OC)c1` gave an efficacy of 89.9% (SARS-CoV-2; cytopathic effect; USA_WA1/2020; retest 8-point).
For `COc1ccccc1NS(=O)(=O)c1ccccc1Sc1ccc(N)cc1`, the IC50 was 9300 nM (HIV-1; viral replication, measured: RT activity; H9 expressing A3G, LAI, X4-tropic wild type; day 7).
`C#C[C@]1(CO)O[C@@H](n2cnc3c(O)ncnc32)C[C@@H]1O` has an IC50 of 37.1 ± 3.2 nM (HIV-1 K65R; MTT; MT4).
`Cc1cc(/C=C/C#N)cc(C)c1Nc1ccnc(Nc2ccc(C#N)cc2)n1` gave an EC50 of 0.8 ± 0.3 nM (HIV-1; viral replication, single-round infection; RT mutant D67E).
For `COc1ccccc1S(=O)(=O)Nc1ccccc1Sc1ccc([N+](=O)[O-])cc1`, the IC50 was 21500 nM (HIV-1; viral replication, measured: RT activity; H9 expressing A3G, LAI, X4-tropic wild type; day 7).
`CNC(=O)[C@@H](NC(=O)[C@H](CC(C)C)[C@H](O)C(=O)NO)C(C)(C)C` gave a remaining activity of 95.7% and 94% and 94.2% (Daboia russelii venom proteases (SVMP); protease activity, inhibitor; KL population; 0.01 µM, with: azocasein substrate; baseline: venom alone).
With `Cn1c(Cn2ccc(C(F)(F)F)c(Oc3cc(Cl)cc(C#N)c3)c2=O)n[nH]c1=O` the EC50 was 1.4 ± 0.6 nM (HIV-1; viral replication, single-round infection; RT mutant E138K/M184I).
The IC50 of `C[C@]1(CO)O[C@@H](n2cnc3c(N)nc(N)nc32)C[C@@H]1O` is reported as 139 ± 39.2 nM (HIV-1 T215F; MTT; MT4).
The EC50 of `Cc1cc(/C=C/C#N)cc(C)c1-n1cnc2cnc(Nc3ccc4cc(C#N)ccc4c3)nc21` is reported as < 5 nM (HIV-1; viral replication, single-round infection; RT mutant K101E/M184V).
`COc1ccccc1NC(=O)c1ccccc1Sc1ccccc1` gave an IC50 of > 100000 nM (HIV-1; viral replication, measured: RT activity; H9 expressing A3G, LAI, X4-tropic wild type; day 7).
`Nc1nc(NC2CC2)c2ncn([C@H]3C=C[C@@H](CO)C3)c2n1` has an IC50 of 1510 ± 705 nM (HIV-1 K65R; MTT; MT4).
`CC[C@H](C)[C@H](N)C(=O)N[C@@H](Cc1c[nH]c2ccccc12)C(=O)N[C@@H](CC(C)C)C(=O)N[C@H](C(=O)N[C@@H](C)C(=O)N[C@@H](CC(C)C)C(=O)N[C@@H](CCCCN)C(=O)N[C@@H](Cc1ccccc1)C(=O)N[C@@H](CC(C)C)C(=O)NCC(=O)N[C@@H](CCCCN)C(=O)N[C@@H](Cc1c[nH]cn1)C(=O)N[C@@H](C)C(=O)N[C@@H](C)C(=O)N[C@@H](CCCCN)C(=O)N[C@@H](Cc1c[nH]cn1)C(=O)N[C@@H](CC(C)C)C(=O)N[C@@H](C)C(=O)N[C@@H](CCCCN)C(=O)N[C@@H](CCC(N)=O)C(=O)N[C@@H](CCC(N)=O)C(=O)N[C@@H](CC(C)C)C(=O)N[C@@H](CO)C(=O)N[C@@H](CCCCN)C(=O)N[C@@H](CC(C)C)C(=O)O)[C@@H](C)O` has an MIC of 25 µM (≈ 71.1 µg/mL) (Pseudomonas aeruginosa; broth microdilution; PAO1).
`CNc1nc(N)ncc1-c1cn([C@@H]2O[C@H](CO[P@@](=O)(N[C@@H](C)C(=O)OC(C)C)Oc3ccccc3)[C@@H](O)[C@@]2(C)F)cn1` — result for antiviral activity: “inactive” (Dengue virus 2; concentration not given).
For `O=C1Nc2ccc(Cl)cc2[C@@](C#CC2CC2)(C(F)(F)F)O1`, the EC50 was 2.1 ± 0.1 nM (HIV-1; viral replication, single-round infection; RT mutant E138K/M184V).
`COc1ccccc1NC(=O)c1ccccc1Oc1ccc([N+](=O)[O-])cc1` has an IC50 of 4700 nM (HIV-1; viral replication, measured: RT activity; H9 expressing A3G, LAI, X4-tropic wild type; day 7).
With `N#CC(C#N)=NNc1cccc(Cl)c1` the tetracycline MIC was 450 µM (Escherichia coli; checkerboard; tetracycline-resistant (pBR322); 21 µM, with: tetracycline).
For `C#C[C@]1(CO)O[C@@H](n2cnc3c(N)nc(F)nc32)C[C@@H]1O`, the IC50 was ≤ 1 nM (HIV-1 K65R; MTT; MT4).
The IC50 of `COc1ccccc1NC(=O)c1ccccc1Sc1ccc([N+](=O)[O-])cc1Cl` is reported as 5000 nM (HIV-1; viral replication, measured: RT activity; H9 expressing A3G, LAI, X4-tropic wild type; day 7).
With `C[C@]1(CO)O[C@@H](n2cnc3c(=O)[nH]c(N)nc32)C[C@@H]1O` the IC50 was 185 ± 72 nM (HIV-1 T215F; MT4).
`Cn1cnc(Cn2c(=O)[nH]/c(=N\c3cc4cn(C)nc4cc3Cl)n(Cc3cc(F)c(F)cc3F)c2=O)n1` — result for “patients with adverse event”: 0% (human, normal renal function; oral, 375 mg, treatment-related dry mouth, Mild severity).
For `Ro 31-8220`, viral titre read “decreased” (porcine epidemic diarrhea virus; concentration not given).
For `COCC(C)n1ccn2cc(C(=O)NCc3ccc(F)cc3F)c(=O)c(O)c2c1=O` (stereo not shown), the EC50 was 3 ± 0.3 nM (human immunodeficiency virus 1; single-round vector infection; integrase S230N).
For `COc1cccc(-c2ccc(CN3CCCC(c4nc5ccc(C)cc5c(=O)[nH]4)C3)cc2)c1` (stereo not shown), the maximum response was 100% (SARS-CoV-2; cytopathic effect; USA_WA1/2020; round 2, 5-point).
The IC50 of `C=C[C@]1(CO)O[C@@H](n2cnc3c(N)nc(N)nc32)C[C@@H]1O` is reported as 5.4 ± 6.5 nM (HIV-1 K65R; MTT; MT4).
`CCCC(=O)OCSc1ccccc1C(=O)NCCC(N)=O` gave an EC50 of 2730 ± 1560 nM (HIV-1; viral replication; human PBMC, subtype C 92BR025, CCR5-tropic clinical isolate).
For `O=C(Nc1ccccc1CO)c1ccccc1Oc1ccc([N+](=O)[O-])cc1`, the IC50 was 9200 nM (HIV-1; viral replication, measured: RT activity; H9 expressing A3G, LAI, X4-tropic wild type; day 7).
The EC50 of `Cc1cc(/C=C/C#N)cc(C)c1-n1cnc2cnc(Nc3ccc(/C=C/C#N)cc3)nc21` is reported as > 7 nM (HIV-1; viral replication, single-round infection; RT mutant K101E/M184I).
The EC50 of `Cc1cn([C@H]2C[C@H](N=[N+]=[N-])[C@@H](CO)O2)c(=O)[nH]c1=O` is reported as 7.33 ± 1.1 nM (HIV-1; viral replication; human PBMC, subtype G JV1083, CCR5-tropic clinical isolate).
`COc1ccccc1C(=O)Nc1ccccc1Oc1ccc([N+](=O)[O-])cc1` has an IC50 of 4900 nM (HIV-1; viral replication, measured: RT activity; H9 expressing A3G, LAI, X4-tropic wild type; day 7).
For `Cc1cn([C@H]2C[C@H](N=[N+]=[N-])[C@@H](CO)O2)c(=O)[nH]c1=O`, the IC50 was 114 ± 88.3 nM (HIV-1 T215F; MTT; MT4).
With `Nc1ncnc2c([C@@H]3N[C@H](CO)[C@@H](O)[C@H]3O)c[nH]c12` the inhibition was 7.4% (Severe acute respiratory syndrome coronavirus; viral replication, inhibitor; Vero 76; 29.6 µM).
For `NC(=O)CCNC(=O)c1ccccc1S`, the EC50 was 4010 ± 1110 nM (HIV-1; viral replication; human PBMC, subtype F 93BR019, CXCR4-tropic clinical isolate).

A few entries again:
`Cc1cc(/C=C/C#N)cc(C)c1Nc1ccnc(Nc2ccc(C#N)cc2)n1` gave an EC50 of 0.8 ± 0.3 nM (HIV-1; viral replication, single-round infection; RT mutant D67E).
For `COc1ccccc1S(=O)(=O)Nc1ccccc1Sc1ccc([N+](=O)[O-])cc1`, the IC50 was 21500 nM (HIV-1; viral replication, measured: RT activity; H9 expressing A3G, LAI, X4-tropic wild type; day 7).
`CNC(=O)[C@@H](NC(=O)[C@H](CC(C)C)[C@H](O)C(=O)NO)C(C)(C)C` gave a remaining activity of 95.7% and 94% and 94.2% (Daboia russelii venom proteases (SVMP); protease activity, inhibitor; KL population; 0.01 µM, with: azocasein substrate; baseline: venom alone).
With `Cn1c(Cn2ccc(C(F)(F)F)c(Oc3cc(Cl)cc(C#N)c3)c2=O)n[nH]c1=O` the EC50 was 1.4 ± 0.6 nM (HIV-1; viral replication, single-round infection; RT mutant E138K/M184I).
The IC50 of `C[C@]1(CO)O[C@@H](n2cnc3c(N)nc(N)nc32)C[C@@H]1O` is reported as 139 ± 39.2 nM (HIV-1 T215F; MTT; MT4).
